Assay results of several laboratories.
Every numbered part comes from another study and shows a few of its results, in no order.

Set 1 — technique: universal PBM; molecule type: double-stranded DNA, one strand shown; sample: in vitro; concentration: not given; direction: higher = stronger binding
Target: Sal-like protein 4, full length isoform B (SALL4, Homo sapiens, UniProt Q9UJQ4-2, residues 1-616)
Notes: 8-mer, flanks averaged, mean of replicates
Construct (chain): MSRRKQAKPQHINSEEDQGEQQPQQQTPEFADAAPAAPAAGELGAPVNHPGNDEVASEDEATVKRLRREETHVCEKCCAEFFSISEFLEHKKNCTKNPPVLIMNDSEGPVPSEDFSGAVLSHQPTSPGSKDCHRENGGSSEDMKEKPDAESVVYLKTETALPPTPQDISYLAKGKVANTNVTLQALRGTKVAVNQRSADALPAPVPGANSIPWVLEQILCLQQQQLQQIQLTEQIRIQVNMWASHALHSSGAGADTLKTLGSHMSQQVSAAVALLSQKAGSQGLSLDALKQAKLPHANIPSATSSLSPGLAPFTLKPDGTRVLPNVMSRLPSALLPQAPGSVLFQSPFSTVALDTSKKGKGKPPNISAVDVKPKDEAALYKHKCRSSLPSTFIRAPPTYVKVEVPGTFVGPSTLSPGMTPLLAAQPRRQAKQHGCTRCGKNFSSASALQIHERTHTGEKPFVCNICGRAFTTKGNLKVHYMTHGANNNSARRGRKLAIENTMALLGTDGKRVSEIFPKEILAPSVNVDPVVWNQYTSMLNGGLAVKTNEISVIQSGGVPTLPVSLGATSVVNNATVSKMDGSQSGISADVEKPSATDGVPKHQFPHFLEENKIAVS
| Strand | E-score |
| --- | --- |
| AGAACTGA | 0.00094 |
| TAGTTAGA | 0.121 |
| GCAGCGAC | -0.386 |
| CGGAGATC | -0.279 |
| CTCGTCAC | 0.00078 |
| ATGATCCC | 0.0331 |
| AAAGGATG | 0.152 |
| CCCACCGC | -0.195 |
| ACCTGGCG | -0.32 |
| GTGCCTAA | 0.0838 |
| ACGTGTTC | 0.0228 |
| GAGAGGTA | -0.219 |
| AAGAGGGC | -0.0531 |
| CCCCAAGC | -0.209 |
| CTTTTACA | 0.208 |
| CAAAAGTG | 0.0726 |
| ATCCTCGA | -0.0743 |

Set 2 — technique: RNA Bind-n-Seq; molecule type: RNA; sample: in vitro; concentration: not given; relative to: input RNA pool; direction: higher = stronger binding
Target: RING finger protein unkempt homolog, zinc fingers 1-6, GST-SBP tag (UNK, Homo sapiens, UniProt Q9C0B0, residues 30-357)
Chain of UniProt Q9C0B0 (30-357, looked up): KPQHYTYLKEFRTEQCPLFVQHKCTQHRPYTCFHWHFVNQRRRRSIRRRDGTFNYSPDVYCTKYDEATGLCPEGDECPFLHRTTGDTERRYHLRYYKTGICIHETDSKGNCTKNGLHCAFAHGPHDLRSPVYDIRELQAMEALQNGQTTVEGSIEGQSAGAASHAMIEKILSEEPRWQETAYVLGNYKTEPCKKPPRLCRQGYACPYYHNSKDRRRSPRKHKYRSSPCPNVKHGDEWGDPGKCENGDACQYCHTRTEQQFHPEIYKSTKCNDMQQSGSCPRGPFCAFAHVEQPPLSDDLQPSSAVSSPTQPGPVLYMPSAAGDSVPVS
Notes: RNA with constant flanks, human and mouse sites, ends assumed
Constant ends, left off below: GGGAGUUCUACAGUCCGACGAUC … CAACAGAGGAUUGAGCAUCA
| Strand | bound/input enrichment [ratio] |
| --- | --- |
| AUUUACCUUAACUCUAAAGCUACAGUAUUUUUAAGAAAUAGUAUUUUACCCUAGCAGUUAAUAAAAAUGCUUGUUAGCUUUGAGAAGUUAUUUCUAUUAGAUAUAUAUUUCUUUUAUUAG | 141 |
| UGUCGGGUGGCUUAUCUGUGGGUGCCAUGGGUGAUGAUGUUCAUUUUAAGCUUUUGCCUGUAGUACAAGCACAUAAUGCUACUGAACGUUUUUCCACUUGGAGACUGUGAGCUGGUUGCU | 0.198 |
| AAGAUGGAGGGUAGCUAGGUAGCUAUGUUGGUCCGUGCUCGACCGGCCCAAUGUUGCCUUUAGUUUUGCCAUUCAGACCAGUGGGUCGGUGUGAUGAUUUAUUCCUGGCGCCCAUAUGAG | 0.459 |
| GGGCUCCGUGGCAAUGAAUUCUUCUGUGAAGUGGAUGAAGACUACAUCCAGGACAAAUUUAAUCUUACUGGACUCAAUGAGCAGGUCCCUCACUAUCGACAAGCUCUAGACAUGAUCUUG | 0.201 |
| GCUGCUUUCCACAGUUUGGUGGGGCUGGCAGCAGUUCUUACCUGCAUGGCCGAGUACAUCGUAGAGUAUCCACAUUUUGCAAUGGAUGCCACGUCAAAUUUCACCAAGAUUGUGGCUUAC | 0.117 |
| GAGAAGCGGGAGAAAAUGAAGCGGACACUCUUAAAGGAUUGGAAGACCCGUUUGAGCUACUUCUUGCAGAAUUCCUCUGCUCCUGGGAAGCCCAAAACUGGCAAGAAAAGCAAACAGCAA | 0.244 |
| AAACAUAACAUAUCUUUAAAGCUUUUCUAUCUUCUUUUGAAAUUUGGACCAAUAAAAUUCUAGGUGAUAUGGAGGAUUGUAUUGCUCAACUUCUCAUAGUGAGACAACACGUAACAAAAC | 4.62 |
| AGAGAUAAGACAUCCAGGAACAUGCGAGGCUCCCGGAUGAAUGGGUUGCCUAGCCCCACUCACAGCGCCCACUGUAGCUUCUACCGAACCAGAACCUUGCAGGCACUGAGUAAUGAGAAG | 0.138 |
| CAUGUCCAGCUUCUCUAGGGCGCCCCAGCAAUGGGCCACUUUUGCUCGAAUGUGGUAUCUCUUAGAUGGCAAAAUGCAGCCCCCUGGCAAACUUGCGGUUAUAGCAUCCAACAAACUGCA | 0.218 |
| CCCUUUGGCGGACCUUUUGAUGUGAGUAGAUGUUUUCUAGGAUAAAAUUUAAGGACUAAUUUUAGACUUAAAACAUUCCACUUUUGUAAGUUGUUUUCAGUGGUCUUAUGUAGAGCAAGC | 0.461 |
| GAAGGUUUUUCAGAAUCCAAGAAAAGGUCAUCAGAAGAUGAAAAUGAAAAUAAAAUAGAGUUUAGGAAGAAAGGAGGAUUUGAAGGGGGAGGAUUCCUUGGAAGAAAGAAAGUUCCCUAU | 3.19 |

Set 3 — technique: RNA Bind-n-Seq; molecule type: RNA; sample: in vitro; concentration: 1 µM; notes: whole 134-nt RNA, ends assumed; added: 150 mM KCl; relative to: input library; direction: higher = stronger binding
Target: Ras GTPase-activating protein-binding protein 1, RRM domain (G3BP1, Homo sapiens, UniProt Q13283)
Chain of UniProt Q13283 (whole entry, looked up): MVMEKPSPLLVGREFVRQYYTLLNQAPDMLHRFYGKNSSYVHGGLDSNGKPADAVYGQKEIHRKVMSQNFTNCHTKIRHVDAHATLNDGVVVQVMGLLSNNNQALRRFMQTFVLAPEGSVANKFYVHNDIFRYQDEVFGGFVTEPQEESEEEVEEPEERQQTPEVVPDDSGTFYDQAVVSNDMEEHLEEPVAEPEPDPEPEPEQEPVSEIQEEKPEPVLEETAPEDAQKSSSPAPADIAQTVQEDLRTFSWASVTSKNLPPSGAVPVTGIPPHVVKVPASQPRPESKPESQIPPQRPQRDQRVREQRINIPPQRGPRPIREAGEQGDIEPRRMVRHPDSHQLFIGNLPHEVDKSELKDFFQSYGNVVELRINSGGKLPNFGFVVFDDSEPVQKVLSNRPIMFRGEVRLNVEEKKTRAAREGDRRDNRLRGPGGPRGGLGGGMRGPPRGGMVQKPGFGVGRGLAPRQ
Constant ends, left off below: GGGAGUUCUACAGUCCGACGAUC … UGGAAUUCUCGGGUGUCAAGG
| Strand | log2 enrichment |
| --- | --- |
| UCCUGUGCUACACAUCGUAUGUACCGAAUCGGGGAAAAAGGGGUUUUUGGGGUUUGGGGAAAGUAUUAUGUUACGCCGUUCGGAUCUGCA | 1.23 |
| UUUUAGAAAGAGAAGGGGAAGAAAAUGAAGCCUUACAUAAGAUGAUUGCAAACGAGCAAAAGACUUCUCUCCCAAAUUUGUUCCAGGAUA | -0.194 |
| UUAGGGCCAAUCUUCGUCAAUAUGGUUUAGAGAAGUAUUACCUUGAUGUCCUGGUUUCAGAUGCAUCUAAACCUUCCUGGAGGAAGGGCA | -0.308 |
| GAAGAUUGGCUUAAAAUGGCUACUGUGAUGGGAACAGUGUCUUAGGGAGAUGCAGCUUGGACUUGAGGUAAAUUGAAUACUUUACAACUG | -0.093 |
| UGGGAGGUGGAUUUUGUUUAUUUUUUUAGCUCAUUUCCAGGGGUGGGAAUUUUUGUUUAAUAUGUGUCAUGAAUAAAGUUGUUUUUGAAA | 2.42 |
| UUAGAUGAGGACCUUGAGAUUGAAUUGGUUGAGGAAGAGCCUCCAUUCCUGAGAGGGCACACUAAGCAAAGCAUGGACAUGAGCCCCAUU | -0.0896 |
| CUGUGCUACACAUCGUAUGUACCGAAUCGGGGUUUUUUUGGGGUUUUUUUGGGGUUUGGGGAAAGUAUUAUGUUACGCCGUUCGGAUCUG | 0.402 |
| AAACAGCUCUAUAACAAAAUACAAUGCGGGUUCAUGUUAAUGUUUUUAUCUCUAACAGGUUGGUUUCAGUGCUGAUGAAACUUGGGACUC | -0.536 |
| UAACUUUAGAGGAGGAUCUGAUGGAUAUGGCAGUGGACGUGGAUUUCGGGAUGGCUAUAAUGGGUAUGGAGGAGGACCUGGAGGUGGCAA | -0.447 |
| UGGCCCUGGUGGCAUGCGGGGAGGAAGAGGUGGCCUCAUCGAUCGUGGUGGUCCCGGUGGAAUGUUCAGAGGUGGCCGUGGUGGAGACAG | 0.148 |
| UCAAGUCCUGUGCUACACAUCGUAUGUACCGAAUCGGUGGAAAAAGGAAAAAGGAAAGUAUUAUGUUACGCCGUUCGGAUCUGCACUUCC | -0.0174 |
| CACAGACAACACGCACCCACACAGACACAAAAGGAAGGGGUUGGGAUGGGGACAGGGUGCACAGCAGGGCGGGGUAGGACCCCAGCCCCU | -0.101 |
| UGGGAGGUGGAUUUUGUUUAUUUUUUUAGCUCAUUUCCAGGGGUGGGUAUUUUUUUUUAAUAUGUGUCAUGAAUAAAGUUGUUUUUGAAA | 1.38 |
| UGCCAAAGUAUGGCAAGAAAUUGCUCCUGGAAAUACUGAUGCCACCCCAGUAACUCAUGGAACUGAAAGCUCUUGGCAUGAAAUAGCAGC | 0.0546 |

Set 4 — technique: RNA Bind-n-Seq; molecule type: RNA; sample: in vitro; concentration: 365 nM; relative to: no-protein control; direction: higher = stronger binding
Target: RNA binding protein fox-1 homolog 2, RRM domain, GST-SBP tag (RBFOX2, Homo sapiens, UniProt O43251-10, residues 100-194)
Notes: natural RNA segment, single round, ends assumed
Constant ends, left off below: GGGAGUUCUACAGUCCGACGAUC … UGGAAUUCUCGGGUGCCAA
Target sequence (chain): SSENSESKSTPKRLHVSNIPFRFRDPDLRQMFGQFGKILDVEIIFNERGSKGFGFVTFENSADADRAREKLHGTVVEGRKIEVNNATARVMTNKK
| Strand | RBNS enrichment (R) |
| --- | --- |
| UAGACCAUAGACUCUAGCCCAGGCUGAUCUGGAGCUUACUGUAUAGCCCAGGCUUUGAACUGGCCUUAGCCUUCCACAUGCUAGGAUUAUAGGUAUGAACCAACAUGCCC | 0.44 |
| GCAGUUGUGCCCAGACCUUCAUGAAUGAAAACGUCAACGUUGAAGCGUUGCUGAUGGAAGCAGCGUGUGAAGGGAUACGGACAAUCUCUCAGUCGAUGAGCCCUCGUCUG | 0.651 |
| CCAAGUUCUAAAAGUUAUGGUUAGAUGCUAUUCUGUGGGUUGCUUUGAUAAUUCUUACUAACACAGAUUAGGGUAUAGGCAUCUAGAGAUGCACUGUCCACUGUAAAUAC | 2.48 |
| GACCUCAGAGGCAUUUUUGCCAAGAGGGCAGAACCUGACUGAGCCCUGGAUAUCCCCUGUCUUAGUGGGUCUGCCAAGGUCUUGUCAGUCUUUUUCUGGUUUUGCUCAAG | 0.203 |
| CCCUGUCCCCCACCUGUGGUUCUGGCCUCUGAGGUUGGGGGACUACUUGUUUCCCACCCCAGGUUCCUCCAGGCCAAGUCAUGGGGUGAUGAGGAGUUGGGGCCCUGUCU | 0.21 |
| UUCCACCAAAGCAAAUCUGGCUCCUUCUUUAGAGAGAAGCCUACGUGGCGACUGCUCUUAUUUAAGGAAACCACCUUGGGUCUGAGAGGUGGAGAGGCCGUGGGAUUAAG | 0.247 |
| AGGCGCCAUGAAUGCGGUUUCUCUGUGUAGCUCUGAGAGUUCGUUUCAUAGAACACAACACUUGAGCAGAUGCAUCCAAGGAGGCGAGCAAAUGAAAAGGAAUCUAUUUA | 0.631 |
| CAUGCUUUUAUCCUGAGAAACCUGGACCCUUAGGCUCUGACUAACAAAGACAGUUCAGCUCCAGACACUGAACUUGGAAUCCUUUGUCUUUGGAUUAAAAGUCAUAAACU | 0.359 |
| CCCACCCCCAUCCUGCUCCAGCGUUUCCUCUAACAGGGACCAGCUCUCCGCUUUGCCCCCACGGGGUUCCUCUAACCAGAACCAGCUUCCUAGCCUCGUAGAGACCAAAG | 0.638 |
| CCCCGUGCGAGCGGCACCCCUGCCCUGCCCUCCACAGAAUUGGGUUCCAAGGGCUGUUCCAGACAACUGCCAACGUCACUGAGGGCCCUGCCCCAGCGGCCCUGGCCCCA | 0.213 |
| CACACCGGGUUGUAUGGCGUCAGCAGGUGUGAGCUGUCCCUUGCUUCUCUUGUCACACAGUGCCCCUUCCCCACGUGUCCUGUGGCUCCAGCCAUUACAGAGUGAAGGUG | 0.589 |
| GAAUGUGGACCUCUGAGCAUCCACGCAGGAUGGCUCUCAGGUCCCAGUCACAGACGUCGCUUCCUGGGAUUCCAGCACGAUGCCUCCAUAGUUGAAAGACUACACAAAAA | 1.61 |

Repeated from above (set 2):
| Strand | bound/input enrichment [ratio] |
| --- | --- |
| UGUCGGGUGGCUUAUCUGUGGGUGCCAUGGGUGAUGAUGUUCAUUUUAAGCUUUUGCCUGUAGUACAAGCACAUAAUGCUACUGAACGUUUUUCCACUUGGAGACUGUGAGCUGGUUGCU | 0.198 |
| AAGAUGGAGGGUAGCUAGGUAGCUAUGUUGGUCCGUGCUCGACCGGCCCAAUGUUGCCUUUAGUUUUGCCAUUCAGACCAGUGGGUCGGUGUGAUGAUUUAUUCCUGGCGCCCAUAUGAG | 0.459 |
| GGGCUCCGUGGCAAUGAAUUCUUCUGUGAAGUGGAUGAAGACUACAUCCAGGACAAAUUUAAUCUUACUGGACUCAAUGAGCAGGUCCCUCACUAUCGACAAGCUCUAGACAUGAUCUUG | 0.201 |
| GCUGCUUUCCACAGUUUGGUGGGGCUGGCAGCAGUUCUUACCUGCAUGGCCGAGUACAUCGUAGAGUAUCCACAUUUUGCAAUGGAUGCCACGUCAAAUUUCACCAAGAUUGUGGCUUAC | 0.117 |
| GAGAAGCGGGAGAAAAUGAAGCGGACACUCUUAAAGGAUUGGAAGACCCGUUUGAGCUACUUCUUGCAGAAUUCCUCUGCUCCUGGGAAGCCCAAAACUGGCAAGAAAAGCAAACAGCAA | 0.244 |
| AAACAUAACAUAUCUUUAAAGCUUUUCUAUCUUCUUUUGAAAUUUGGACCAAUAAAAUUCUAGGUGAUAUGGAGGAUUGUAUUGCUCAACUUCUCAUAGUGAGACAACACGUAACAAAAC | 4.62 |
| AGAGAUAAGACAUCCAGGAACAUGCGAGGCUCCCGGAUGAAUGGGUUGCCUAGCCCCACUCACAGCGCCCACUGUAGCUUCUACCGAACCAGAACCUUGCAGGCACUGAGUAAUGAGAAG | 0.138 |
